Results pooled from the literature.
± marks the error that the study gave.

CN(C)CCc1c[nH]c2ccccc12
hepatocyte CLint (metabolic stability; human, hepatocytes; 3.1 µM): 13.2 µL/min/10⁶ cells

CN1C(=O)CC(=O)N(c2ccccc2)c2cc(Cl)ccc21
half-life (CF-1 mouse, brain; intraperitoneal, 17 mg/kg): 1.51 h

CNC(=O)O/N=C/C(C)(C)[S+](C)[O-] (stereo not drawn)
percent metabolized (human liver mitochondrial preparation; 1 µM, 30 min, 0.5 mg/mL protein): 5.58%

N[C@@]1(c2ccccc2Cl)CCC[C@@H](O)C1=O
Cmax (male CD-1 mice, plasma; 50 mg/kg, range of two cohorts): 5640 to 5900 ng/mL

C#Cc1ccc2c(c1)C(c1ccccn1)=NCc1c(-c3cnco3)ncn1-2.Cl
solubility (shake flask; HCl buffer; 24 h, pH 1, 25 °C): 13.1 mg/mL

CC(C)C[C@@H]1NC(=O)[C@H](C)N(C)C(=O)[C@H](Cc2ccccc2)NCc2cc(c[nH]2)CNC1=O
Papp (PAMPA; 100 µM, 17 h, pH 6.4): 0.0288 ×10⁻⁶ cm/s

CCCN(CCC)C(=O)Cc1c(-c2ccc(Cl)cc2)nc2ccc(Cl)cn12
EC20 (cytochrome c release, ELISA; BALB/cByJ female mouse liver mitochondria; 30 min; reference: alamethicin maximal release): 395 µM

CC[C@@H]1CN2CC[C@@]3(O)C(=Nc4cccc(OC)c43)[C@@H]2C[C@@H]1/C(=C\OC)C(=O)OC
concentration (rat, plasma extract; 3200 ng/mL, 12 h, 25 °C, autosampler stability): 3190 ± 184 ng/mL

COc1ccc2c(c1)[C@]13CCCC[C@@H]1[C@H](C2)N(C)CC3
AUC(0-t) (Wistar rat, both sexes, plasma; oral, 5 mg/kg, 2 h after pretreatment, added: single TCE 400 mg/kg): 149 ± 25.8 ng·h/mL

C=C(C)[C@@H]1CCC(C)=C[C@H]1c1c(O)cc(CCCCC)cc1O
subjects reporting adverse events (healthy human volunteers; dose not given, added: fluconazole): 19%

CN1C(=O)CC(=O)N(c2ccccc2)c2cc(Cl)ccc21
Tmax (mouse wild-type and Scn1a+/−, plasma; intraperitoneal, 10 mg/kg, single dose): 0.417 h

CC(C)C[C@H](NC(=O)[C@H](C)NC(=O)[C@H](CCCCN)NC(=O)[C@H](CC(C)C)NC(=O)[C@H](C)NC(=O)[C@H](CC(C)C)NC(=O)[C@H](CCCCN)NC(=O)[C@H](CC(C)C)NC(=O)[C@H](C)NC(=O)[C@H](CC(C)C)NC(=O)[C@H](CCCCN)NC(=O)c1ccc2c(c1)C(=O)OC21c2ccc(O)cc2Oc2cc(O)ccc21)C(=O)N[C@@H](CCCCN)C(=O)N[C@@H](C)C(=O)N[C@@H](C)C(=O)N[C@@H](CC(C)C)C(=O)N[C@@H](CCCCN)C(=O)N[C@@H](CC(C)C)C(=O)N[C@@H](C)C(=O)O
apparent skin permeability (no effect; Sprague-Dawley rat, excised skin; 50 µmol/L, 37 °C, FAM-labelled CPP conjugate; reference: free FAM): no effect

Cc1ncc2n1-c1ccc(Cl)cc1C(c1ccccc1F)=NC2
AUC(0-inf) geometric mean (healthy men, plasma; oral, 7.5 mg, without amenamevir): 113 ng·h/mL

C#Cc1ccc2c(c1)C(c1ccccc1F)=N[C@@H](C)c1c(C(=O)OCC(F)(F)F)ncn1-2
compound remaining (metabolic stability; human, liver microsomes; 30 min): < 5%

Cc1ncc2n1-c1ccc(Cl)cc1C(c1ccccc1F)=NC2
Tmax (human CYP3A5 expressers, serum; oral, added: ketoconazole 400 mg): 0.9 h

Cc1ncc2n1-c1ccc(Cl)cc1C(c1ccccc1F)=NC2
t1/2 (healthy volunteers, plasma; oral, 7.5 mg single dose, day 1, geometric mean, alone): 5.15 h

C[C@@H]1N=C(c2ccccc2F)c2cc(Br)ccc2NC1=O
concentration (male Wistar rat, plasma; intraperitoneal, 2 mg/kg, 1 h): 618 nM

C=C1C[C@@H]2[C@H](CC[C@]3(C)C(=O)CC[C@@H]23)[C@@]2(C)C=CC(=O)C=C12
median plasma concentration (LC-MS/MS; postmenopausal breast cancer women, plasma; oral, 25 mg/day, 2 h, self-reported White race): 7.9 ng/mL

C[C@H]1CNCCc2ccc(Cl)cc21
half-life (male Sprague-Dawley rat, plasma; subcutaneous, 3 mg/kg, single dose): 1.83 h

CN1CC[C@@]23CCCC[C@@H]2[C@@H]1Cc1ccc(O)cc13
MRT(0-t) (Wistar rat, both sexes, plasma; oral, 5 mg/kg DEM, DEM 2 h after pretreatment, added: QN 2.5 mg/kg single pretreatment): 4.09 ± 0.72 h

C[C@]12CC[C@H]3[C@@H](CCC4=CC(=O)CC[C@@]43C)[C@@H]1CC[C@@H]2O
share of total drug-related species (eugonadal men, pooled serum; before dosing, baseline): 8.6%

NC(=O)c1ccc2c(c1O)[C@]13CCN(CC4CC4)[C@H](C2)[C@]1(O)CCC(=O)C3
unbound brain concentration (Sprague Dawley rat; subcutaneous, 30 min, total plasma 46.1 ng/mL): 23.1 nM

C=CCN1CC[C@]23c4c5ccc(O)c4O[C@H]2C(=O)CC[C@@]3(O)[C@H]1C5
EC20 (cytochrome c release, ELISA; BALB/cByJ female mouse liver mitochondria; 30 min; reference: alamethicin maximal release): > 400 µM

O=C(O)CC[C@H](NP(=O)(O)OC[C@H](NC(=O)CC[C@H](NC(=O)c1ccc([18F])cc1)C(=O)O)C(=O)O)C(=O)O
tissue uptake (ex vivo biodistribution; male NCr nude mice, LNCaP PSMA+ xenograft, kidney; 2 h): 2.24 ± 0.6 %ID/g

CN1CC[C@]23c4c5ccc(O)c4O[C@H]2[C@@H](O)C=C[C@H]3[C@H]1C5
immobility time (forced swim test; ICR mice; intrathecal, 2 nmol, 30 min before test, minutes 2 to 6): 170 ± 7.8 s

CCCCCCCCCCC(=O)O[C@H]1CC[C@H]2[C@@H]3CCC4=CC(=O)CC[C@]4(C)[C@H]3CC[C@]12C
testosterone change (human blood; 600 ng/mL, 60 min, 4 °C, NaF 5 mg/mL, K2 oxalate 4 mg/mL; reference: no compound added): 29.8%

Cc1ncc(OC[C@@]2(c3cccc(F)c3)C[C@H]2C(=O)Nc2ccc(F)cn2)c(C)n1
fraction absorbed (human, male; oral, 10 mg): 0.87

COc1ccsc1CNCC[C@@]1(c2ccccn2)CCOC2(CCCC2)C1
volume of distribution (Vz) (healthy human, normal hepatic function, plasma; intravenous, 1 mg single dose, geometric mean): 126 L

COc1nc2ccc(Br)cc2cc1[C@@H](c1ccccc1)[C@@](O)(CCN(C)C)c1cccc2ccccc12
t1/2 (mouse, C3HeB/FeJ, plasma; oral, 25 mg/kg, 72 to 168 h terminal): 116 h

CCN(C(C)=O)c1cccc(-c2ccnc3c(C#N)cnn23)c1
CLint (guinea pig Hartley male, hepatic S9; 1 µM, pH 7.4, added: without NADPH): 6.73 ± 3.63 mL/min/kg

For quick reference, copied from above:
CN1C(=O)CC(=O)N(c2ccccc2)c2cc(Cl)ccc21
half-life (CF-1 mouse, brain; intraperitoneal, 17 mg/kg): 1.51 h

C#Cc1ccc2c(c1)C(c1ccccn1)=NCc1c(-c3cnco3)ncn1-2.Cl
solubility (shake flask; HCl buffer; 24 h, pH 1, 25 °C): 13.1 mg/mL

CCCN(CCC)C(=O)Cc1c(-c2ccc(Cl)cc2)nc2ccc(Cl)cn12
EC20 (cytochrome c release, ELISA; BALB/cByJ female mouse liver mitochondria; 30 min; reference: alamethicin maximal release): 395 µM
